Measurements collected from several papers.
Compare with care: the assays were run in different laboratories.

| Structure (SMILES) | test | system | conditions | how to read | endpoint | value |
| --- | --- | --- | --- | --- | --- | --- |
| CCOc1c([C@H](C)n2nc(C)c3c(N)ncnc32)cc(Cl)c(F)c1[C@@H]1CNC(=O)C1 | measured: QTcF change ≤30 ms | previously treated B-cell malignancy | oral, 45 mg once daily, baseline QTcF ≤450 ms | relative to: baseline | patients | 100% |
| CNC(=O)c1cc(Oc2ccc(NC(=O)Nc3cc(C(C)(C)C)nn3-c3ccc4ncccc4c3)c(F)c2)ccn1 |  | patients | oral, dose not given, cycles 1 and 2, High Cmax subgroup |  | patients with grade 1 musculoskeletal disorders | 17% |
| Cc1cc(-c2nnc(N)nc2-c2ccc(F)cc2)cc(Cl)n1 | measured: rash | post-IO NSCLC patients | oral, 100 mg once daily, treatment-related, grade 2 |  | patients with immune-mediated AE | 0% |
| COc1cc(Nc2ncc3c(n2)-c2ccc(Cl)cc2C(c2c(F)cccc2OC)=NC3)ccc1C(=O)O | measured: Anemia, all grades | cancer patients, phase 1/2 | oral, dose not given, with: pembrolizumab |  | patients with adverse event | 79% |
| C[C@@H](Nc1cc(F)cc(F)c1)c1cc(C(=O)N(C)C)cc2c(=O)cc(N3CCOCC3)oc12 | measured: Vomiting | advanced solid tumour patients | oral, dose not given, dose finding |  | patients discontinuing for AE | 1.6% |
| FC(F)(F)c1ccc(CNc2ccc(Cc3c[nH]c4ncc(Cl)cc34)cn2)cn1 | measured: blood alkaline phosphatase increased | patients with TGCT | oral, 1000 mg/day, all grades |  | patients with treatment-related adverse event | 10% |
| CNC(=O)c1ccc(-c2cnc3ncc(Cc4ccc5ncccc5c4)n3n2)cc1F | measured: Asthenia | cancer patients | oral, 600 mg twice daily, all expansion cohorts, grade 3-4 |  | patients with adverse event | 0% |
| O=C(Nc1nc2cccc(-c3ccc(CN4CCS(=O)(=O)CC4)cc3)n2n1)C1CC1 |  | rheumatoid arthritis patients | oral, 100 mg twice daily, 4 weeks, TEAE regardless of relatedness |  | patients with Pyrexia | 0% |
| C=CC(=O)Nc1cc(Nc2nccc(-c3cn(C)c4ccccc34)n2)c(OC)cc1N(C)CCN(C)C | measured: treatment-related grade ≥3 Myalgia | EGFR-mutant MET-altered NSCLC | oral, dose not given, all |  | patients with adverse events | 2% |
| Cc1cc(NC2CCN(C(=O)OC3CCN(C(=O)/C=C/CN(C)C)C3)CC2)n2ncc(C(C)C)c2n1 (stereo not shown) | Phase I dose escalation CTCAE v4.0, measured: abdominal distension | patients with advanced solid tumours | dose not given, Total dosing grade 3 or higher |  | patients with adverse event | 0% |

Excerpt of the above:
| Structure (SMILES) | test | system | conditions | how to read | endpoint | value |
| --- | --- | --- | --- | --- | --- | --- |
| CCOc1c([C@H](C)n2nc(C)c3c(N)ncnc32)cc(Cl)c(F)c1[C@@H]1CNC(=O)C1 | measured: QTcF change ≤30 ms | previously treated B-cell malignancy | oral, 45 mg once daily, baseline QTcF ≤450 ms | relative to: baseline | patients | 100% |
